Results pooled from the literature.
Lines come from different studies, so protocols differ. Numbers after ± are the reported error.

Compound = COc1ccc(Oc2ccc(OCCSC#N)cc2)cc1; organism = Toxoplasma gondii; system = hTERT fibroblasts, RFP-expressing tachyzoites; IC50 = 3.8 µM
Compound = CC(C)(C)C(=O)Nc1ccc2[nH]c3c(C4=C[C@@]5(O)CC/C=C\CCCCN6CC[C@@H]4[C@]4(C[C@@H]7/C=C\CCCCN7[C@H]45)C6)nccc3c2c1; organism = Mycobacterium intracellulare; test = microbial growth; IC50 = 1.31 µM
Compound = C[C@@H]1N[C@H](CCCCCCCCCCc2cc(CCCCCCCCCC[C@@H]3CC[C@H](O)[C@@H](C)N3)c3[n+](c2)CCC3)CC[C@H]1O; organism = Leishmania donovani; test = parasite growth, resazurin; conditions = 72 h, amastigote; IC50 = 2.08 µg/mL
Compound = Cc1ccc(Nc2nc(-c3cc(C(=O)Nc4cc(C)ccn4)no3)cs2)cc1; organism = Mycobacterium avium; system = 11; conditions = 96 h; IC50 = > 100 µM
Compound = CO[C@H]1/C=C/O[C@@]2(C)Oc3c(C)c(O)c4c(c3C2=O)C2=NC3(CCN(CC(C)C)CC3)NC2=C(NC(=O)/C(C)=C\C=C\[C@H](C)[C@H](O)[C@@H](C)[C@@H](O)[C@@H](C)[C@H](OC(C)=O)[C@@H]1C)C4=O; organism = Mycobacteroides abscessus; system = ATCC 19977; conditions = 50% human serum; IC50 = 2.5 µM
Compound = O=C1NC(=S)S/C1=C\c1c[nH]c2ccc([N+](=O)[O-])cc12; organism = Leishmania donovani; test = parasite growth, resazurin; system = THP-1; conditions = 24 h, intracellular, amastigote; IC50 = > 10 µM
Compound = O=C1C(O)=C([C@H]2CC[C@H](c3ccc(Cl)cc3)CC2)C(=O)c2ccccc21; organism = Plasmodium yoelii; test = oxygen consumption; system = 17XL, infected red blood cells; IC50 = 0.005 ± 0.001 µM
Compound = Cc1ccc(Nc2nc(-c3cc(C(=O)Nc4cccc(C)c4)no3)cs2)cc1; organism = Mycobacterium avium; system = 11; conditions = 96 h; IC50 = > 100 µM
Compound = O=C1CSC(=S)N1/N=C/c1cn(Cc2ccc(F)cc2)c2ccc([N+](=O)[O-])cc12; organism = Leishmania donovani; test = parasite growth, resazurin; system = THP-1; conditions = 24 h, intracellular, amastigote; IC50 = > 10 µM
Compound = Cc1ccc(Nc2nc(-c3cc(C(=O)Nc4ccccn4)no3)cs2)cc1O; organism = Mycobacterium avium; system = 11; conditions = 96 h; IC50 = > 100 µM
Compound = Nc1ccn(C[C@@H](CO)OCP(=O)(O)O)c(=O)n1; organism = Human adenovirus E serotype 4; test = viral replication, plaque reduction; system = A549, RI-6; conditions = 5 days; IC50 = 16.6 ± 2.9 µM
Compound = CCCCCCCc1c(C)[nH]c2cc(OC)ccc2c1=O; organism = Plasmodium yoelii; test = oxygen consumption; system = 17XL; IC50 = 0.011 µM
Compound = NC(=O)c1ncn([C@@H]2O[C@H](CO)[C@@H](O)[C@H]2O)n1; organism = Human adenovirus E serotype 4; test = viral replication, plaque reduction; system = A549, RI-6; conditions = 5 days; IC50 = > 40 µM
Compound = Cc1ccc(Nc2nc(-c3cc(C(=O)Nc4ccc(F)cc4)no3)cs2)cc1; organism = Mycobacterium avium; system = 11; conditions = 96 h; IC50 = > 100 µM
Compound = C[C@]12CCC(=O)C=C1C=C[C@@H]1[C@@H]2CC[C@@]2(C)[C@H]1CC[C@@]21CCC(=O)O1; organism = human immunodeficiency virus 1; test = viral transcription, luciferase reporter; system = MT2 transfected with pNL4.3-Luc; conditions = 48 h; IC50 = 9.2 µM
Compound = Cc1ccc(Nc2nc(-c3cc(C(=O)Nc4cccc(F)c4)no3)cs2)cc1; organism = Mycobacterium avium; system = 11; conditions = 96 h; IC50 = > 100 µM
Compound = COc1c(OC)c(O)c2c(=O)cc(-c3ccc(O)cc3)oc2c1OC; organism = human immunodeficiency virus 1; test = viral transcription, luciferase reporter; system = MT2 transfected with pNL4.3-Luc; conditions = 48 h; IC50 = 18 µM
Compound = CC(C)(C)C1=CC(=NNC(=O)c2ccc(O)cc2)C=C(C(C)(C)C)C1=O; organism = Toxoplasma gondii; test = parasite growth, fluorescence; conditions = 5 days, intracellular; IC50 = 3.8 µM

For quick reference, copied from above:
Compound = NC(=O)c1ncn([C@@H]2O[C@H](CO)[C@@H](O)[C@H]2O)n1; organism = Human adenovirus E serotype 4; test = viral replication, plaque reduction; system = A549, RI-6; conditions = 5 days; IC50 = > 40 µM
Compound = Cc1ccc(Nc2nc(-c3cc(C(=O)Nc4cc(C)ccn4)no3)cs2)cc1; organism = Mycobacterium avium; system = 11; conditions = 96 h; IC50 = > 100 µM
